Measurements pooled from the literature.
Lines come from different studies, so protocols differ. Numbers after ± are the reported error.
Alpha-carbonic anhydrase: Alpha-carbonic anhydrase (Enterococcus faecium, UniProt Q3XYE8)
PLEKHA5 PH domain: Pleckstrin homology domain-containing family A member 5, PH domain (PLEKHA5, Homo sapiens, UniProt Q9HAU0)
UniProt Q9HAU0, sequence (whole entry, looked up): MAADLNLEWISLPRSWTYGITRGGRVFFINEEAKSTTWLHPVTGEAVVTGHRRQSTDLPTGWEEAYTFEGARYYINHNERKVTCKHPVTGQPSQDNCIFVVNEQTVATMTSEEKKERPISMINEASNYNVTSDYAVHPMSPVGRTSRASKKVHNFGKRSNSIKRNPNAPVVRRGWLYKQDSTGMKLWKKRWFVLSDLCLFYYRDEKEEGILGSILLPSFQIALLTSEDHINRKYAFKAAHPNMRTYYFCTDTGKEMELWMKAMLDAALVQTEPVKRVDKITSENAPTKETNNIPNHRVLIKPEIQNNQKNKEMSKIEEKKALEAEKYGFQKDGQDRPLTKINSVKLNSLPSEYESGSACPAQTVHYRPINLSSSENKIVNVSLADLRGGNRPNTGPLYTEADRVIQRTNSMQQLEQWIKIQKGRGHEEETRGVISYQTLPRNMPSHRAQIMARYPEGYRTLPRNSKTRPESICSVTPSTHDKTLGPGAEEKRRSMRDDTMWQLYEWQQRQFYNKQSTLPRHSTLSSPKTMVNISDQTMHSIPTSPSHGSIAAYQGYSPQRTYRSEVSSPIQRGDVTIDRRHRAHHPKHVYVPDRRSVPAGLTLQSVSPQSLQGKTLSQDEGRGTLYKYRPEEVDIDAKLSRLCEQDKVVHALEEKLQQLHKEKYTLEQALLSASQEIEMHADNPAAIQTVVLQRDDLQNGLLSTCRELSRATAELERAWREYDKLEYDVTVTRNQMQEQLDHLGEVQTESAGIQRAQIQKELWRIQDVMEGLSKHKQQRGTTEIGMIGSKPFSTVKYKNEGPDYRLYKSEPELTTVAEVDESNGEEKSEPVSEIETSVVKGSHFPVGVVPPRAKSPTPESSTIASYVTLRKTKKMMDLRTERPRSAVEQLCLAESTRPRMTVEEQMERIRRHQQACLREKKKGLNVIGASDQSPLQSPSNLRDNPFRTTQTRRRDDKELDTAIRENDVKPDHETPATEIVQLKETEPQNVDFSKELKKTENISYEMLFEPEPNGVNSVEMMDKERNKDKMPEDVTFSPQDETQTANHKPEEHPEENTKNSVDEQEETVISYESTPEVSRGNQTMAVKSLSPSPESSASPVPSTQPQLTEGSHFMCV
UniProt Q70CQ1, sequence (whole entry, looked up): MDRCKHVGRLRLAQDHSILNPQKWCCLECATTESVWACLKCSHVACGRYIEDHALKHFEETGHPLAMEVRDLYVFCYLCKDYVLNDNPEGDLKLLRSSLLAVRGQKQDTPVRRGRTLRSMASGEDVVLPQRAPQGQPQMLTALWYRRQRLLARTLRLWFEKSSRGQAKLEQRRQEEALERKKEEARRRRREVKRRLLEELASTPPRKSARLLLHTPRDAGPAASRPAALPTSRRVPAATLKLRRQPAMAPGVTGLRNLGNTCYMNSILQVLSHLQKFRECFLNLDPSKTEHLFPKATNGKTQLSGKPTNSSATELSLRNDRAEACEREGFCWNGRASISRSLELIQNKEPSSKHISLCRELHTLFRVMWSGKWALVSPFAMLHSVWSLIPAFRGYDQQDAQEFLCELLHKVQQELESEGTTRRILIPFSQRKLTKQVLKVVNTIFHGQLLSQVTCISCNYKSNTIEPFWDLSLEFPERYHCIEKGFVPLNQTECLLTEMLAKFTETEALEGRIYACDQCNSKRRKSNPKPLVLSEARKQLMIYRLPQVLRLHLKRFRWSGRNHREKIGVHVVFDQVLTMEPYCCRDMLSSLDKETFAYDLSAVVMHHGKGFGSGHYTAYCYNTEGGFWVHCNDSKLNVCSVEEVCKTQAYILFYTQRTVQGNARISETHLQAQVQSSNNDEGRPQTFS
UniProt P34972, sequence (whole entry, looked up): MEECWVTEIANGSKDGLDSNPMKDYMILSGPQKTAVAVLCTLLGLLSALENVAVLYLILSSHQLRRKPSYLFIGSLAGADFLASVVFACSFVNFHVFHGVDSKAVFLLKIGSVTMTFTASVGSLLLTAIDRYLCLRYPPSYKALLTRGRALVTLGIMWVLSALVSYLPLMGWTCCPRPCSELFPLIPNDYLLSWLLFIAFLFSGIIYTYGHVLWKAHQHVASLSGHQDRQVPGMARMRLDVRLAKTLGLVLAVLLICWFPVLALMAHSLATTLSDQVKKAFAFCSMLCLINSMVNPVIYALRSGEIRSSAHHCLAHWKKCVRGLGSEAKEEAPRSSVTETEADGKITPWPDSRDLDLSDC
UniProt Q53GS9, sequence (whole entry, looked up): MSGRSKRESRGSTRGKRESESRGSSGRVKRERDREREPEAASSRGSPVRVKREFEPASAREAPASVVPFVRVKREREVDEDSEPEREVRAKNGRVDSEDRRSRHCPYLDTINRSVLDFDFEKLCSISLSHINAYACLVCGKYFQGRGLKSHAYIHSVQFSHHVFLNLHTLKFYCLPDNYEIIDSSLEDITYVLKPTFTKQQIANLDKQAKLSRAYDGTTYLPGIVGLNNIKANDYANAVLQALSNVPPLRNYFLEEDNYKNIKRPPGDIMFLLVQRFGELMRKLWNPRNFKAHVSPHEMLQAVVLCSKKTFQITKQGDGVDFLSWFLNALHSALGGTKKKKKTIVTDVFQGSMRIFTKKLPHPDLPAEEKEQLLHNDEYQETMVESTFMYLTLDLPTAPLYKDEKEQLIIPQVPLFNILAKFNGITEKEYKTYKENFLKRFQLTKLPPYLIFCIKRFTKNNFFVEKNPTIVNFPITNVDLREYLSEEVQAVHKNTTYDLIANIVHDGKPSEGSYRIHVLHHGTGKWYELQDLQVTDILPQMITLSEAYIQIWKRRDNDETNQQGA
UniProt Q15208, sequence (whole entry, looked up): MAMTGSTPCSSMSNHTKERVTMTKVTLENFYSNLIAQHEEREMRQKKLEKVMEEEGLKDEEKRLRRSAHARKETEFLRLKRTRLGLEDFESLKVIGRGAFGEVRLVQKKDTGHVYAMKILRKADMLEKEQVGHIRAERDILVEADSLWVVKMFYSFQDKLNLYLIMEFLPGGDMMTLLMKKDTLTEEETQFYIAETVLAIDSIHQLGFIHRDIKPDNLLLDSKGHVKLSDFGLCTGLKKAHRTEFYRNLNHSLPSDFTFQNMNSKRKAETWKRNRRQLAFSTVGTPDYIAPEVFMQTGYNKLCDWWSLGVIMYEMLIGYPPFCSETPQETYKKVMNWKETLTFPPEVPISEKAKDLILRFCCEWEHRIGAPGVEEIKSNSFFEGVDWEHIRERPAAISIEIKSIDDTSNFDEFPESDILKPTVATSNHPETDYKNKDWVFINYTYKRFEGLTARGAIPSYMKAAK
UniProt P08684, sequence (whole entry, looked up): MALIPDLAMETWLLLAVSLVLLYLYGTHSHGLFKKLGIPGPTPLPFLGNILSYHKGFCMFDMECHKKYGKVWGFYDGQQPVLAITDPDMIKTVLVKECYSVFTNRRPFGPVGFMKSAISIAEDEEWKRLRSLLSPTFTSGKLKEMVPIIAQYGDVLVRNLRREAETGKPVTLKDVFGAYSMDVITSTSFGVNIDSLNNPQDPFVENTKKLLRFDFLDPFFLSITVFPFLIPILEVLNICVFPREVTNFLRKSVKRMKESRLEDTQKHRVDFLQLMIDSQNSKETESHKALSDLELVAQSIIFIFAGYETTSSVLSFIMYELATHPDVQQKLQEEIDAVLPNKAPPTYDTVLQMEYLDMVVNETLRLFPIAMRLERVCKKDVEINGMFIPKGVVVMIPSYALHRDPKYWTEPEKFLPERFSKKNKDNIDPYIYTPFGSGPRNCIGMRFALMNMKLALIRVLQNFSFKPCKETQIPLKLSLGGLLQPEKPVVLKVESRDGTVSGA
UniProt P52790, sequence (whole entry, looked up): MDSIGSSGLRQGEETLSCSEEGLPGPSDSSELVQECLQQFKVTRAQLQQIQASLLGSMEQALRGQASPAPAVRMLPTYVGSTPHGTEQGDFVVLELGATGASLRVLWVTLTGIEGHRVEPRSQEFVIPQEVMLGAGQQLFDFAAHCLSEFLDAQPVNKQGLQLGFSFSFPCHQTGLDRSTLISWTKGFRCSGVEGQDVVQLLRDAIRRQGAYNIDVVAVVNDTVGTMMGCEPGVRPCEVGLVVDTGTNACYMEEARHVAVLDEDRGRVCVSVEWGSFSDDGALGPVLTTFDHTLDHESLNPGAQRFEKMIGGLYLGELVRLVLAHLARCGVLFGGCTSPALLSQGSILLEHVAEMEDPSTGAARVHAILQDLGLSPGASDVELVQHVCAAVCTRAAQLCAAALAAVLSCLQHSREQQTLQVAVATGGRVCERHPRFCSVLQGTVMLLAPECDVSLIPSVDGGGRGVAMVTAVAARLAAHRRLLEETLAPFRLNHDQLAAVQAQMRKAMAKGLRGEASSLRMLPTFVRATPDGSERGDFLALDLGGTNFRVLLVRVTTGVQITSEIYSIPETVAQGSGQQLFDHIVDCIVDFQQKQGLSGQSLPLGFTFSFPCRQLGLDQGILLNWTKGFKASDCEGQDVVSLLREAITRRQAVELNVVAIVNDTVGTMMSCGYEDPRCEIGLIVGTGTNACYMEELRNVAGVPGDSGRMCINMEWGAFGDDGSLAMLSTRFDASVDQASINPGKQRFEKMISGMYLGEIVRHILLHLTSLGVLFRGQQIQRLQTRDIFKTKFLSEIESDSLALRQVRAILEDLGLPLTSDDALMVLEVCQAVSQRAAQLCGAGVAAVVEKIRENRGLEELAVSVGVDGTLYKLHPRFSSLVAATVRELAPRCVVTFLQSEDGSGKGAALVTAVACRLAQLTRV

| SMILES | target | test | system | setting | scale | measurement | value |
| --- | --- | --- | --- | --- | --- | --- | --- |
| Cc1ccccc1C(=O)Nc1nnc(S(N)(=O)=O)s1 | Alpha-carbonic anhydrase | CO2 hydration, inhibitor, stopped-flow kinetics | – | – | – | Ki | 0.0089 µM |
| CCOc1ccc(-c2cc(C(=O)O)c(-c3ccc(Cl)cc3)o2)cc1 | PLEKHA5 PH domain | PLEKHA5 PI(4,5)P2 binding, fluorescence polarization | – | with: BODIPY-PI(4,5)P2 tracer | – | Ki | 1.93 ± 0.94 µM |
| O=c1cc(-c2ccc(O)c(O)c2)oc2cc(O[C@@H]3O[C@H](CO)[C@@H](O)[C@H](O)[C@H]3O)cc(O)c12 | L-lactate dehydrogenase A chain (LDHA, Homo sapiens, UniProt P00338) | enzyme activity, inhibitor | – | with: 150 µM NADH, varied pyruvate | competition with pyruvate | Ki | 137 µM |
| CCOc1ccc(C(=O)CC(SCc2ccccc2)C(=O)O)cc1 (stereo not shown) | PLEKHA5 PH domain | PLEKHA5 PI(4,5)P2 binding, fluorescence polarization | – | with: BODIPY-PI(4,5)P2 tracer | – | Ki | 89 ± 22 µM |
| NS(=O)(=O)c1nnc(NC(=O)C2CC23CCCCC3)s1 (stereo not shown) | Alpha-carbonic anhydrase | CO2 hydration, inhibitor, stopped-flow kinetics | – | – | – | Ki | 0.0713 µM |
| O=c1n(CCCN2CCN(c3cccc(Cl)c3)CC2)nc2ccccn12 | Cannabinoid receptor 2 (CNR2, Homo sapiens, UniProt P34972) | – | – | – | – | Ki | > 10 µM |
| NS(=O)(=O)c1nnc(NC(=O)CC2CCC(F)(F)CC2)s1 | Alpha-carbonic anhydrase | CO2 hydration, inhibitor, stopped-flow kinetics | – | – | – | Ki | 0.0086 µM |
| CCOc1ccc(C(=O)CC(SCc2cccc(Br)c2)C(=O)O)cc1 (stereo not shown) | PLEKHA5 PH domain | PLEKHA5 PI(4,5)P2 binding, fluorescence polarization | – | with: BODIPY-PI(4,5)P2 tracer | – | Ki | 12.6 ± 0.7 µM |
| O=C(O)Cc1nc2ccccc2[nH]1 | Ubiquitin carboxyl-terminal hydrolase 49, ZnF-UBD domain (USP49, Homo sapiens, UniProt Q70CQ1) | – | – | – | – | Kd | > 1 mM |
| COc1ccc(C(=O)CC(SCc2ccc(Cl)cc2)C(=O)O)cc1 (stereo not shown) | PLEKHA5 PH domain | PLEKHA5 PI(4,5)P2 binding, fluorescence polarization | – | with: BODIPY-PI(4,5)P2 tracer | – | Ki | 54 ± 6.3 µM |
| O=C(O)c1ccc(Cn2ccnc2)o1 | WD repeat-containing protein 5 (WDR5, Homo sapiens, UniProt P61964) | fluorescence polarization competition | – | with: 10mer-Thr-FAM peptide | – | Ki | > 5 µM |
| CC1(C(=O)Nc2nnc(S(N)(=O)=O)s2)CCC1 | Alpha-carbonic anhydrase | CO2 hydration, inhibitor, stopped-flow kinetics | – | – | – | Ki | 0.0262 µM |
| OC[C@H]1OC(O)[C@H](O)[C@@H](O)[C@@H]1O (stereo partly shown) | Hexokinase-3 (HK3, Homo sapiens, UniProt P52790) | enzyme activity, substrate inhibitor, coupled G6PDH | – | complete inhibition model, with: ATP 20 mM | – | Ki | 11000 ± 2000 µM |
| NS(=O)(=O)c1nnc(NC(=O)C2CC23CCCOC3)s1 (stereo not shown) | Alpha-carbonic anhydrase | CO2 hydration, inhibitor, stopped-flow kinetics | – | – | – | Ki | 0.0573 µM |
| CC[C@@H]1[C@H](F)C(=O)N[C@@H]1COc1nccc2cc(C(N)=O)c(OC)cc12 | Serine/threonine-protein kinase 38 (STK38, Homo sapiens, UniProt Q15208) | ATP-site probe binding, ActivX profiling | THP-1 cell lysate | Lys2 site | – | IC50 | 350 nM |
| Cc1ccc(S(=O)(=O)n2cc(/C=N/NC(=S)Nc3cccc([N+](=O)[O-])c3)c3ccccc32)cc1 | mushroom tyrosinase | inhibitor | – | with: L-DOPA | – | Ki | 10.25 ± 0.08 µM |
| CCOc1ccc(C(=O)CC(SCc2ccc(Cl)cc2)C(=O)O)cc1 (stereo not shown) | PLEKHA5 PH domain | PLEKHA5 PI(4,5)P2 binding, fluorescence polarization | – | with: BODIPY-PI(4,5)P2 tracer | – | Ki | 16.5 ± 1.2 µM |
| COc1cc(Cl)c(S(=O)(=O)N2CCCC(C)C2)cc1Cl (stereo not shown) | Melanopsin (OPN4, Homo sapiens, UniProt Q9UHM6) | radioligand binding | CHO-OPN4 cell membranes | – | – | Ki | 9.6e-05 µM |
| O=C(O)CCC1=Nc2cccc3cccc(c23)N1 | Ubiquitin carboxyl-terminal hydrolase 39, ZnF-UBD domain (Homo sapiens, UniProt Q53GS9) | – | – | – | – | Kd | > 1 mM |
| COc1ccc(F)cc1C(=O)NCc1ccc(-c2nn([C@@H](C)C(F)(F)F)c(N)c2C(N)=O)cc1 | Cytochrome P450 3A4 (CYP3A4, Homo sapiens, UniProt P08684) | reversible inhibitor | human liver microsomes | – | – | Ki | 25.2 µM |
| CCOc1ccc(C(=O)CC(SCc2ccccc2Br)C(=O)O)cc1 (stereo not shown) | PLEKHA5 PH domain | PLEKHA5 PI(4,5)P2 binding, fluorescence polarization | – | with: BODIPY-PI(4,5)P2 tracer | – | Ki | 19.4 ± 2.7 µM |
| NS(=O)(=O)c1nnc(NC(=O)COC2CCC(F)(F)CC2)s1 | Alpha-carbonic anhydrase | CO2 hydration, inhibitor, stopped-flow kinetics | – | – | – | Ki | 0.0108 µM |

For quick reference, copied from above:
| SMILES | target | test | system | setting | scale | measurement | value |
| --- | --- | --- | --- | --- | --- | --- | --- |
| OC[C@H]1OC(O)[C@H](O)[C@@H](O)[C@@H]1O (stereo partly shown) | Hexokinase-3 (HK3, Homo sapiens, UniProt P52790) | enzyme activity, substrate inhibitor, coupled G6PDH | – | complete inhibition model, with: ATP 20 mM | – | Ki | 11000 ± 2000 µM |
| NS(=O)(=O)c1nnc(NC(=O)C2CC23CCCOC3)s1 (stereo not shown) | Alpha-carbonic anhydrase | CO2 hydration, inhibitor, stopped-flow kinetics | – | – | – | Ki | 0.0573 µM |
| CC[C@@H]1[C@H](F)C(=O)N[C@@H]1COc1nccc2cc(C(N)=O)c(OC)cc12 | Serine/threonine-protein kinase 38 (STK38, Homo sapiens, UniProt Q15208) | ATP-site probe binding, ActivX profiling | THP-1 cell lysate | Lys2 site | – | IC50 | 350 nM |
